Measurements collected from several papers.
Compare with care: the assays were run in different laboratories. ± gives the spread as reported.
Technique: steady-state kinetics
B1: POLK T408W/W214Y/W392H (Homo sapiens, UniProt Q9UBT6); chain MGLNDNKAGMEGLDKEKINKIIMEATKGSRFYGNELKKEKQVNQRIENMMQQKAQITSQQLRKAQLQVDRFAMELEQSRNLSNTIVHIDMDAFYAAVEMRDNPELKDKPIAVGSMSMLSTSNYHARRFGVRAAMPGFIAKRLCPQLIIVPPNFDKYRAVSKEVKEILADYDPNFMAMSLDEAYLNITKHLEERQNYPEDKRRYFIKMGSSVENDNPGKEVNKLSEHERSISPLLFEESPSDVQPPGDPFQVNFEEQNNPQILQNSVVFGTSAQEVVKEIRFRIEQKTTLTASAGIAPNTMLAKVCSDKNKPNGQYQILPNRQAVMDFIKDLPIRKVSGIGKVTEKMLKALGIITCTELYQQRALLSLLFSETSHHYFLHISLGLGSTHLWRDGERKSMSVERTFSEINKAEEQYSLCQELCSELAQDLQKERLKGRTVTIKLKNVNFEVKTRASTVSSVVSTAEEIFAIAKELLKTEIDADFPHPLRLRLMGVRISSFPNEEDRKHQQ
B2: TaNK (Thermoplasma acidophilum, UniProt Q9HJT3); chain MRFLAYFGHLNIDVLISVDSIPREGSVNVKDLRPRFGGTAGNFAIVAQKFRIPFDLYSAVGMKTHREYLAMIESMGINTGHVEKFEDESGPICYIATDGKKQVSFMHQGAMEKWKPQLADEYEYVHFSTGPNYLDMAKSIRSKIIFDPSQEIHKYSKDELKKFHEISYMSIFNDHEYRVFREMTGLSSPKVTTIVTNGERGSSLFMDGKKYDFPAIPSSGDTVGAGDSFRAGLYLALYNRRSIEKGMIYGTIIAHHVIDDGIENFSLNMEDLERETENYRRMFTKRS
B3: enzyme A178R/D177A/P184R (Levilactobacillus brevis, UniProt Q03Q85); chain MKVTVVGCTHAGTFAIKQILAEHPDAEVTVYERNDVISFLSCGIALYLGGKVADPQGLFYSSPEELQKLGANVQMNHNVLAIDPDQKTVTVEDLTNHAQTTESYDKLVMTSGSWPIVPKIPGIDSDRVKLCKNWAHAQALIEDAKEAKRITVIGAGYIGAELAEAYSTTGHDVTLIARMARVMRKYFDADFTDVIEQDYRDHGVQLALGETVESFTDSATGLTIKTDKNSYETDLAILCIGFRPNTDLLKGKVDMAPNGAIITDDYMRSSNPDIFAAGDSAAVHYNPTHQNAYIPLATNAVRQGILVGKNLVKPTVKYMGTQSSSGLALYDRTIVSTGLTLAAAKQQGLNAEQVIVEDNYRPEFMPSTEPVLMSLVFDPDTHRILGGALMSKYDVSQSANTLSVCIQNENTIDDLAMVDMLFQPNFDRPFNYLNILAQAAQAKVAQSVNA
B4: ERAP1 (Homo sapiens, UniProt Q9NZ08); chain MVFLPLKWSLATMSFLLSSLLALLTVSTPSWCQSTEASPKRSDGTPFPWNKIRLPEYVIPVHYDLLIHANLTTLTFWGTTKVEITASQPTSTIILHSHHLQISRATLRKGAGERLSEEPLQVLEHPRQEQIALLAPEPLLVGLPYTVVIHYAGNLSETFHGFYKSTYRTKEGELRILASTQFEPTAARMAFPCFDEPAFKASFSIKIRREPRHLAISNMPLVKSVTVAEGLIEDHFDVTVKMSTYLVAFIISDFESVSKITKSGVKVSVYAVPDKINQADYALDAAVTLLEFYEDYFSIPYPLPKQDLAAIPDFQSGAMENWGLTTYRESALLFDAEKSSASSKLGITMTVAHELAHQWFGNLVTMEWWNDLWLNEGFAKFMEFVSVSVTHPELKVGDYFFGKCFDAMEVDALNSSHPVSTPVENPAQIREMFDDVSYDKGACILNMLREYLSADAFKSGIVQYLQKHSYKNTKNEDLWDSMASICPTDGVKGMDGFCSRSQHSSSSSHWHQEGVDVKTMMNTWTLQKGFPLITITVRGRNVHMKQEHYMKGSDGAPDTGYLWHVPLTFITSKSDMVHRFLLKTKTDVLILPEEVEWIKFNVGMNGYYIVHYEDDGWDSLTGLLKGTHTAVSSNDRASLINNAFQLVSIGKLSIEKALDLSLYLKHETEIMPVFQGLNELIPMYKLMEKRDMNEVETQFKAFLIRLLRDLIDKQTWTDEGSVSERMLRSQLLLLACVHNYQPCVQRAEGYFRKWKESNGNLSLPVDVTLAVFAVGAQSTEGWDFLYSKYQFSLSSTEKSQIEFALCRTQNKEKLQWLLDESFKGDKIKTQEFPQILTLIGRNPVGYPLAWQFLRKNWNKLVQKFELGSSSIAHMVMGTTNQFSTRTRLEEVKGFFSSLKENGSQLRCVQQTIETIEENIGWMDKNFDKIRVWLQSEKLEHDPEADATG
B5: enzyme (Vitis vinifera, UniProt F6H697); chain MAVDPILSSPLGPAASEKDAKALQFIEEMTRNADSVQERVLAEILSRNGETEYLKRFKLEGSTVRETFKSKIPVIKYEDLQPEIQRIANGDRSAILSAHPISEFLTSSGTSAGERKLMPTIQEELDRRQMLYSLLMPVMNLYVPGLDKGKGLYFLFVKSETRTPGGLLARPVLTSYYKSEHFKTRPYDPYNVYTSPNEAILCADSFQSMYTQMLCGIYERKQVLRLGAVFASGLLRAIRFLQLNWHQLTHDIRTGTLSPKITDPSVRNCVAGVLKPDPELADLVAGECSKDNWEGIITRIWPNTKYLDVIVTGAMAQYIPTLDYYSGGLPLACTMYASSECYFGLNLNPMSKPSEVSYTIMPNMAYFEFLPHEHSSIPLSRDSPPRLVDLAHVEVGKEYELVITTYAGLYRYRVGDILRVTGFHNSAPQFHFVRRKNVLLSIDSDKTDEAELQKAVDNASKLLREVNTSVVEYTSFADTKTIPGHYVIYWELLVKDSANSPSDELLGQCCLAMEESLNSVYRQGRVADNSIGPLEIRVVKSGTFEELMDYAISRGASINQYKVPRCVNFTPIMELLDSRVVSSHFSPALPHWTPARRR
B6: PPIP5K2 (Homo sapiens, UniProt O43314); chain MSEAPRFFVGPEDTEINPGNYRHFFHHADEDDEEEDDSPPERQIVVGICSMAKKSKSKPMKEILERISLFKYITVVVFEEEVILNEPVENWPLCDCLISFHSKGFPLDKAVAYAKLRNPFVINDLNMQYLIQDRREVYSILQAEGILLPRYAILNRDPNNPKECNLIEGEDHVEVNGEVFQKPFVEKPVSAEDHNVYIYYPTSAGGGSQRLFRKIGSRSSVYSPESNVRKTGSYIYEEFMPTDGTDVKVYTVGPDYAHAEARKSPALDGKVERDSEGKEVRYPVILNAREKLIAWKVCLAFKQTVCGFDLLRANGQSYVCDVNGFSFVKNSMKYYDDCAKILGNIVMRELAPQFHIPWSIPLEAED
B7: protein (UniProt A0A4Y6I0S2); chain MTFEEKPMKFDGLDIEGVAFAPSVAALGSAKPLVLGGAGDRGLEINGNYIKFTAIGIYIEDGIIPHLSSKLSGKTVLELCEKDLLFEEVIYAPFEKLVRVVFIAPLTGIQYSEKVLERISVQALYTDIKEEHKQQFLEIFKGESFPPQSSAILSFSKEGLKVAFSKGDDVPAKAVGTIENARFADAVLGTIIWRDGVSPAAKVSLAERVSKYLQLGPSDGLASVPQSK
B8: enzyme (Trichoderma reesei, UniProt G0RH19); chain KNGAFPHDNAAVPNVERVLPLFSLKGRTAIVSGAGAGIGLAVAQAFAEAGANVAIWYNSNKQAVTSAEDIAKTYGVKCKAYQVNVTSAEAVDKAITEIIKEFNGRLDVFVANSGITWTEGAFIDGSVESARNVMSVNVDGVMWCAKSAGAHFRRQKEEGTTIDGKPLDNFIAGSFIATASMSGSIVNVPQLQAVYNSSKAAVIHFCKSLAVEWTGFARVNTVSPGYIITEISNFVPPETKTLWKDKIVMGREGRVGELKGAYLYLASDASSYTTGLDMIVDGGYSLP
B9: CDO (Bacillus subtilis, UniProt O32085); chain MELYECIQDIFGGLKNPSVKDLATSLKQIPNAAKLSQPYIKEPDQYAYGRNAIYRNNELEIIVINIPPNKETTVHDHGQSIGCAMVLEGKLLNSIYRSTGEHAELSNSYFVHEGECLISTKGLIHKMSNPTSERMVSLHVYSPPLEDMTVFEEQKEVLENS
B10: putA E1012A (Rhodobacter capsulatus, UniProt D5AN87); chain MTDLSALGPKAKFAPEAEVLQALVAQAALPQPQLDRIAARGADLVARIRAEAKPSLMEHFLAQYGLSTREGVALMCLAEAMLRVPDTATIDALIEDKIAPSDWGKHLGTAASSLVNASTWALMLTGKVLDDGAGGIAGTLRGAMRRLGEPVIRAAVGQAMREMGRQFVLGETIEKALERAEKREAEGYTFSYDMLGEAALTAADAERYRLAYAQAITAIGKAATRGSIAANPGISIKLSALHPRYEVAQEARVMAELVPVVRDLARAAARAGIALHIDAEEQDRLALSLRVMAAVIADPETAGWEGFGAVVQAYGKRAGAAIDALAAMARAAGRRINIRLVKGAYWDAEMKRAQVEGHPGFPLFTSKTGTDVAYICLAAKLFGLNDCIYPQFATHNAHTVAAVLEMAAGRPFEFQRLHGMGARLHDIVLRETGGRCRIYAPVGAHRDLLAYLVRRLLENGANSSFVNQIVNESVPPAEVAACPFAALPTARAPRGLLAPADLFGAGRVNAQGFDLSDPEVLARIEAARDVTLPDAAPIVAGPVSGTLRPVRNPATGAVVAQVTEADAATVALALDAAQVWSAPAATRAAVLCRAADLYEENFGPIFAALAQEAGKTLGDAVSELREAVDFLRYYAAEGAADTRPPRGAVVAISPWNFPLAIFTGQVAAALMAGNAVLAKPAEQTPIIAALAVRLLHQAGVPETALQLLPGDGPTVGAALTRDPRVAGVVFTGSTETAQIIARAMAAHLAPGTPLIAETGGLNAMVVDSTALPEQAVRDVVASAFRSAGQRCSALRCLYVQDDIAPHLIGMLKGAMEELVSGDPARLSTDVGPVIDAEAKAGIETYLAANKARILHRSTAPEGGHFVAPALLQVGGIADLEREIFGPVLHLATFAAEDLPAVIAAINARGYGLTFGLHSRIDARVETVAETIRAGNIYVNRNQIGAVVGSQPFGGEGLSGTGPKAGGPLYLNRFYAPEPVVAVGGWTEAATPILPEARETQLDEIFLPGPTGALNRLTRHQRGPILCLGPGAEAASAQAAAVVALGGQAVQASGAVSPKALETLTPLAGVLWWGAAEMGRAYAQALAVRPGPLVPLITAKPDLAHVAHERHLCVDTTAAGGNAALLAG

`B1 (POLK T408W/W214Y/W392H)` gave a kcat of 0.017 ± 0.001 s⁻¹ (Nc1ccn([C@H]2C[C@H](O)[C@@H](COP(=O)(O)OP(=O)(O)OP(=O)(O)O)O2)c(=O)n1; pH 7.5, 23 °C, MgCl2 5 mM, added: G template).
For `B2 (TaNK)`, the kcat was 0.266 ± 0.027 s⁻¹ (Nc1nc2c(ncn2[C@@H]2O[C@H](COP(=O)(O)OP(=O)(O)OP(=O)(O)O)[C@@H](O)[C@H]2O)c(=O)[nH]1; pH 8, 22 °C, apparent, added: inosine, Mg2+).
The kcat of `B3 (enzyme A178R/D177A/P184R)` is reported as 59 ± 18 s⁻¹ (NC(=O)C1=CN([C@@H]2O[C@H](COP(=O)(O)OP(=O)(O)OC[C@H]3O[C@@H](n4cnc5c(N)ncnc54)[C@H](O)[C@@H]3O)[C@@H](O)[C@H]2O)C=CC1; pH 7.5, 37 °C, per site).
The kcat of `B4 (ERAP1)` is reported as 0.304 ± 0.052 s⁻¹ (CC(C)C[C@H](NC(=O)CNC(=O)[C@H](CCC(=O)O)NC(=O)[C@H](Cc1ccccc1)NC(=O)[C@H](CCCNC(=N)N)NC(=O)[C@H](CCCCN)NC(=O)[C@@H](N)Cc1ccc(O)cc1)C(=O)N[C@H](C(=O)N[C@@H](CCC(N)=O)C(=O)N[C@@H](CCCNC(=N)N)C(=O)O)[C@@H](C)O; 25 °C).
`B5 (enzyme)` gave a kcat of 0.238 s⁻¹ (O=C(O)Cc1c[nH]c2ccccc12; pH 8.6, 25 °C).
The kcat of `B6 (PPIP5K2)` is reported as 0.13 ± 0.01 s⁻¹ (Nc1ncnc2c1ncn2[C@@H]1O[C@H](COP(=O)(O)OP(=O)(O)OP(=O)(O)O)[C@@H](O)[C@H]1O).
With `protein (Streptomyces coelicolor, UniProt Q9K464)` the kcat was 0.0485 ± 0.00133 s⁻¹ (CC(=O)CC(=O)SCCNC(=O)CCNC(=O)[C@H](O)C(C)(C)COP(=O)(O)OP(=O)(O)OC[C@H]1O[C@@H](n2cnc3c(N)ncnc32)[C@H](O)[C@@H]1OP(=O)(O)O; pH 7.8, 30 °C, NaCl 150 mM, added: methylmalonyl-CoA 1.0 mM).
With `B7 (protein)` the kcat was 154 ± 11.7 s⁻¹ (O=C(/C=C/c1ccc(O)cc1)c1c(O)cc(O)cc1O).
The kcat of `B8 (enzyme)` is reported as 7.75 s⁻¹ (NC(=O)C1=CN([C@@H]2O[C@H](COP(=O)(O)OP(=O)(O)OC[C@H]3O[C@@H](n4cnc5c(N)ncnc54)[C@H](OP(=O)(O)O)[C@@H]3O)[C@@H](O)[C@H]2O)C=CC1; pH 7, cofactor varied).
`B9 (CDO)` has a kcat of 0.4 ± 0.1 s⁻¹ (N[C@@H](CS)C(=O)O; pH 6.1, 37 °C, added: O2, Fe(II)).
For `B10 (putA E1012A)`, the kcat was 19.8 ± 0.7 s⁻¹ (O=C(O)[C@@H]1CCCN1; pH 8, 23 °C).

For quick reference, copied from above:
The kcat of `B6 (PPIP5K2)` is reported as 0.13 ± 0.01 s⁻¹ (Nc1ncnc2c1ncn2[C@@H]1O[C@H](COP(=O)(O)OP(=O)(O)OP(=O)(O)O)[C@@H](O)[C@H]1O).
